Results of several laboratories.
A part holds a random share of what one study measured.

Study 1 — target: UBE2N UBC core domain (UniProt P61088); technique: yeast two-hybrid; matrix: yeast; notes: mostly zero background; reference: not given; direction: higher = stronger interaction
Chain of UniProt P61088 (whole entry, looked up): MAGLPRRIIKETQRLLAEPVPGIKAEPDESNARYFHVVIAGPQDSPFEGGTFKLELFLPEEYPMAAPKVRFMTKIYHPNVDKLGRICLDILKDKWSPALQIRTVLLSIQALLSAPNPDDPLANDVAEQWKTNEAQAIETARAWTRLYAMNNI
B1: MDM4 RING domain (UniProt O15151); chain MEDCQNLLKPCSLCEKRPRDGNIIHGRTGHLVTCFHCARRLKKAGASCPICKKEIQLVIKVF
B2: UBOX5 RING domain (UniProt O94941); chain EQPGSILGPECASCKRVFSPYFKKEPVYQLPCGHLLCRPCLGEKQRSLPMTCTACQRPVASQDVLR
B3: SYTL4 RING domain (UniProt Q96C24); chain RGSQHYSDRTCARCQESLGRLSPKTNTCRGCNHLVCRDCRIQESNGTWRCKVCAKEIELKKAT
B4: SH3RF1 RING domain (UniProt Q7Z6J0); chain DESALLDLLECPVCLERLDASAKVLPCQHTFCKRCLLGIVGSRNELRCPECRTLVGSGVEEL
B5: RBCK1 RING domain (UniProt Q9BYM8); chain SLVLNTEPAECPVCYSVLAPGEAVVLRECLHTFCRECLQGTIRNSQEAEVSCPFIDNTYSCSGKLLEREIK
B6: RNF133 RING domain (UniProt Q8WVZ7); chain DEEINPNGDSCVICFERYKPNDIVRILTCKHFFHKNCIDPWILPHGTCPICKCDILKVLGIQ
B7: DTX2 RING domain (UniProt Q86UW9); chain EELKVPPDEDCIICMEKLSTASGYSDVTDSKAIGSLAVGHLTKCSHAFHLLCLLAMYCNGNKDGSLQCPSCKTIYGEKTGTQ
B8: RFWD3 RING domain (UniProt Q6PCD5); chain ASMDEEEGDTCTICLEQWTNAGDHRLSALRCGHLFGYRCISTWLKGQVRKCPQCNKKARHSDIVV
B9: ZMIZ2 RING domain (UniProt Q8NF64); chain GTIPGTPGPNGEDGVEQTAIKVSLKCPITFRRIQLPARGHDCRHIQCFDLESYLQLNCERGTWRCPVCNKTALLEGLEVDQYMLGILIYIQNSDYEEITIDPTCSWK
B10: MAP3K1 RING domain (UniProt Q13233); chain NSIKDEEEQMCPICLLGMLDEESLTVCEDGCRNKLHHHCMSIWAEECRRNREPLICPLCRSKWRSHDFYS
| Sequence | lacZ reporter activity |
| --- | --- |
| YQNEVDDDLVCHICLQPLLQPLDTPCGHTFCYKCLRNFLQEKDFCPLDRKRLHFKLCKK (LNX2 RING domain (UniProt Q8N448)) | 0 |
| B1 (MDM4 RING domain) | 0 |
| AMYLQENGIDCPKCKFSYALARGGCMHFHCTQCRHQFCSGCYNAFYAKNKC (RNF31 RING domain (UniProt Q96EP0)) | 0 |
| B2 (UBOX5 RING domain) | 0 |
| B3 (SYTL4 RING domain) | 0 |
| B4 (SH3RF1 RING domain) | 0 |
| B5 (RBCK1 RING domain) | 0 |
| B6 (RNF133 RING domain) | 2500 |
| B7 (DTX2 RING domain) | 0 |
| B8 (RFWD3 RING domain) | 5220 |
| B9 (ZMIZ2 RING domain) | 0 |
| B10 (MAP3K1 RING domain) | 7100 |

Study 2 — technique: protein binding microarray; form: double-stranded DNA, one strand shown; matrix: in vitro; tested at: not given; reference: not given; direction: higher = stronger binding
Target: Histone acetyltransferase KAT6A, both winged helices, GST fusion (KAT6A, Homo sapiens, UniProt Q92794, residues 1-181)
Notes: 8-mer, flanks averaged, mean of 2 arrays, mostly near background
Target sequence (chain): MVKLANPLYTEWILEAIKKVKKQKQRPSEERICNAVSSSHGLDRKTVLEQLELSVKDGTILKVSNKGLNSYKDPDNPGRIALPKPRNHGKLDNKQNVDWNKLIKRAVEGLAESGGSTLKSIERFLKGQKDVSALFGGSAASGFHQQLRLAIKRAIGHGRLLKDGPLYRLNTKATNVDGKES
| Sequence | E-score |
| --- | --- |
| AGTGTGGG | -0.293 |
| AACCGGGG | 0.0404 |
| CTCACTCC | -0.0624 |
| ATTCACGG | 0.184 |
| TCACGACA | -0.1 |
| GATCGTAA | -0.0422 |
| ATGGAAAT | -0.159 |
| ATACCGTC | 0.202 |
| TACCAATA | -0.134 |
| ATTCACGC | 0.114 |
| AACCCAGA | -0.15 |
| GTAGATTA | 0.0709 |
| CCCAGACA | -0.231 |
| AGTTCACC | 0.0963 |
| GTCAAGAC | -0.0117 |
| ATGTCTAC | -0.0528 |
| CTCAAACC | 0.0124 |
| GTCGTCGA | 0.0946 |
| AGGTGCTG | -0.266 |
| AGACTGTA | -0.0656 |
| CAATCCCC | -0.106 |
| ACTCTCAC | 0.0744 |
| ACTGCCCT | -0.0101 |
| CAATGTGC | -0.0625 |

Study 3 — technique: RNA Bind-n-Seq; form: RNA; matrix: in vitro; tested at: 365 nM; reference: no-protein control; direction: higher = stronger binding
Target: RNA binding protein fox-1 homolog 2, RRM domain, GST-SBP tag (RBFOX2, Homo sapiens, UniProt O43251-10, residues 100-194)
Notes: natural RNA segment, single round, ends assumed
Construct (chain): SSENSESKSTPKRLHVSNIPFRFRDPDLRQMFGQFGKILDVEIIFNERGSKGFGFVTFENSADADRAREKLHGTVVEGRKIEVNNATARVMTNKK
| Sequence | RBNS enrichment (R) |
| --- | --- |
| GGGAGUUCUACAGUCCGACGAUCUUUGCUGUCCGCUUUUCUCUGUGACCACAGCAGCCCUGAACAACCAGUAUGUGUCUUCUUCUCCAGAUAGUGAAAAAGGUGUCCAGAUAAACCCACCUAAGUGAAAUGGCUGGAAUUCUCGGGUGCCAA | 0.73 |
| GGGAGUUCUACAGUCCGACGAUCUGGCUUCCCCAGGGAAGGAAAAAUGUGCUUCCUCCCUUUUUUCAAGGGUUCAUCUUUGCUUUAAUUUUGGCAAAAUGUUAAGCAUUUAUUUUGAGCUAAAAAUAAAAGUUUGGAAUUCUCGGGUGCCAA | 0.406 |
| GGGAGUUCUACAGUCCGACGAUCAAUGGCUCCUUGAUGGACGGCACCCUCUUCGAUUCCAGGUACUCCCGCAACCACACCUACAAUACCUAUAUCGGGCAGGGUUACAUCAUCCCCGGGAUGGACCAGGGGCUUGGAAUUCUCGGGUGCCAA | 0.273 |
| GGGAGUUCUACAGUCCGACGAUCGGAGUUGGUGGGGGAGGGAUGGGUAUUAUAUAAAGAGACCCCUCCCCUUAUUUUGUGUUUUCCAUCCCUCUCCCUUAACAGGAUUGAAAUAAAACAUGCUUCUGUUUUUGUGGAAUUCUCGGGUGCCAA | 0.479 |
| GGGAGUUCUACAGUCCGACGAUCUAUCGGCUCUGGCUCCCCGGAACCAUUAGAGACUAACUGUUGUUUCCACAAAGGAGGGCUGAGAGUGAACGUGAUCAUACGUAGUUGUGAAAUCGGUUUGAUUGAGUGGGUGGAAUUCUCGGGUGCCAA | 0.718 |
| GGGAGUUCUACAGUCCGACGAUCCCUUUUGCAGUUGCGUCUGGGAAGGGGCCCCGGACUCCCUCGAGAGAAUGUGCUAGAGACAGCCCCUGUCUUCUUGGCGUGGUUUAUAUGUCCGGGAUCUGGAUCAGAUUUGGAAUUCUCGGGUGCCAA | 3.35 |
| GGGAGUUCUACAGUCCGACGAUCAAGUAGUUUAAAUGAGGGAAAGGAAAAUGCAGACCACAUCUUGCCUGCCUCGUAAGCGUUUCCUCCCUGAAUUGAAGUACAUAGGCUAAUAUAUUAUUUUGUAGUAUCUCUGGAAUUCUCGGGUGCCAA | 1.8 |
| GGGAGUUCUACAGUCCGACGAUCAGGUCUCAUCACCUCACACUUCUUGACUUCACAAAAUUGUGGCCCUGAGAUCAGUACUCCUCUCUUAAGUAUUUAUUAUUAUUAUUAUUUACUUUACCUCAAGCAGACAGUGGAAUUCUCGGGUGCCAA | 0.317 |
| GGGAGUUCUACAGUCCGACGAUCUGUCACUAAAGCGGGCCUUUUGAUAUAUUAAGUUUUUUAAAAGCAAAACAAGUUUAGAUUUUAAUCAGAUUUGUAGGGUUUCUAACUUUACAGAAUUGCCUGUUUGUUUCUGGAAUUCUCGGGUGCCAA | 0.893 |
| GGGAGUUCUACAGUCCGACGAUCUUACUUUACCUCAAGCAGACAGACAUAGGUUUUGAGGCUUGAAUACAUGGCAGUGGAAUACAAGGCCCUCCCUAGCAGCCGCCCCAGGCCUGGAAAGUGGGAGAUUUCAUUGGAAUUCUCGGGUGCCAA | 0.293 |
| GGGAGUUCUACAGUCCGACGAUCUGGUACCCUGGCUGCAGCCCAGCGGGGGCUGGAGAGGCAGGGGAGGGCAGUGGUCCUUCCAAAUAGAAGUCCUGGGGCCUGGCCAGGCCAGGGUUUGGGCCUAAUGGUUUUGGAAUUCUCGGGUGCCAA | 0.521 |
| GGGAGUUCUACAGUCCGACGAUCCAAAGCCAAGUCCACCAGAGUGGCUGCAGGCCAGGCCUGGAGUCCCCGUGGGUCAAGCAUUUGUCUUGACUUGCUUUCCUCCCGGGUCUCCAGCCUCCGACCCCUCGCCCUGGAAUUCUCGGGUGCCAA | 0.241 |

Study 4 — technique: RNAcompete; form: RNA; matrix: in vitro; tested at: 20 nM; notes: 7-mer, probes averaged, single round; reference: mean of 7-mers; direction: higher = stronger binding
Target: PABPC1L2, full length, GST fusion (mouse, UniProt A0ABA7IW68)
Construct (chain): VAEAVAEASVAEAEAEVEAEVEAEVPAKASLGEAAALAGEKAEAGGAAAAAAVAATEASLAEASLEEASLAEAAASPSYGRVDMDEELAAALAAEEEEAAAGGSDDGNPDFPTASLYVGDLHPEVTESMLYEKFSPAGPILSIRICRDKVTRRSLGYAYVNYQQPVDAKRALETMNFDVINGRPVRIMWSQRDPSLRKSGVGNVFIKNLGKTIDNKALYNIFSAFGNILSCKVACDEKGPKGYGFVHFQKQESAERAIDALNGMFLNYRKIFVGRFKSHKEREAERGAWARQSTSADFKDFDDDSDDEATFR
| Sequence | 7-mer Z-score |
| --- | --- |
| UUCCAAU | -0.278 |
| AUUCCGA | -0.137 |
| GUUCUAU | -0.329 |
| UCAACAG | -0.208 |
| UGUGCCU | -0.282 |
| UAGUCUC | -0.347 |
| UUAAUUA | -0.0156 |
| AUUCACA | -0.0337 |
| AUCAGCG | -0.0772 |
| UUAAUCA | -0.217 |
| UGAAGCU | -0.148 |
| ACAUGGG | 0.37 |
| CGACCGC | -0.2 |
| GUGAGAG | -0.0047 |
| AGUCUUC | -0.409 |
| AGGCCAC | -0.0989 |
| AAUGUGC | -0.0482 |
| UCUUAGG | -0.306 |
| CAUCGUG | -0.208 |
| CAACUAC | -0.117 |
| UAGCGUU | -0.253 |
| CCGGUCU | -0.331 |
| AGCCAGC | -0.208 |
| GAUAGGU | -0.128 |
| GAAACCA | 0.115 |

Repeated from above (study 2):
| Sequence | E-score |
| --- | --- |
| CTCAAACC | 0.0124 |
| CTCACTCC | -0.0624 |
| ACTGCCCT | -0.0101 |
| AGTTCACC | 0.0963 |
| GTCAAGAC | -0.0117 |
| ATGGAAAT | -0.159 |
| TCACGACA | -0.1 |
| CAATGTGC | -0.0625 |
